Assay results collected from several papers.
± gives the spread as reported.
UCHL1: Ubiquitin carboxyl-terminal hydrolase isozyme L1 (UCHL1, Homo sapiens, UniProt P09936)
Sequence of UniProt P09936 (whole entry, looked up): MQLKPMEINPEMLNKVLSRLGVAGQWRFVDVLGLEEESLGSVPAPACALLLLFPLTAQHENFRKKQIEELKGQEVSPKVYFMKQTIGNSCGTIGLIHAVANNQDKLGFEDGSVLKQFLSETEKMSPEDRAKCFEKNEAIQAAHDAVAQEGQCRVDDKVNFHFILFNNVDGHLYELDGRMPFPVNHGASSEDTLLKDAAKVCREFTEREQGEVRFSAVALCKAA

SMILES = O=C(Nc1ccncc1)c1cc([N+](=O)[O-])ccc1Cl; target or system = HepG2; setting = 72 h; how to read = relative to: HepG2 CC50 over EC50; measurement = selectivity index; result = 24
SMILES = CCN1CCN(Cc2ccc(Nc3nc4cnc(Oc5ccnc(NC(C)=O)c5)nc4n3C)cc2C(F)(F)F)CC1; target or system = HepG2; test = cytotoxicity; setting = 48 h; measurement = EC50; result = 6 ± 1 µM
SMILES = CN1CCC(c2cc(-c3ccncc3)c(-c3ccc(F)cc3)[nH]2)CC1; target or system = HepG2; test = MTS; setting = 20 µM, 48 h; measurement = viability; result = 60%
SMILES = CSc1cccc(NC(=O)CCc2c(C)nc3c4cccnc4nn3c2C)c1; target or system = HepG2; test = cytotoxicity, CellTiter-Glo; setting = 3 days; measurement = IC50; result = > 56 µM
SMILES = COc1ccc(Nc2cnnc3cc(-c4cnc(N5CCCN(C)CC5)nc4)ccc23)cc1Cl; target or system = HepG2; test = cytotoxicity; measurement = TC50; result = > 2.1 µM
SMILES = CCN1CCN(Cc2ccc(Nc3nc4ccc(Oc5ccnc(NC(C)=O)c5)c(C)c4n3C)cc2C(F)(F)F)CC1; target or system = HepG2; test = cytotoxicity; setting = 48 h; measurement = EC50; result = 4.5 ± 0.2 µM
SMILES = CC[C@@H]1/C=C(\C)C[C@H](C)C[C@H](OC)[C@H]2O[C@@](O)(C(=O)C(=O)N3CCCC[C@H]3C(=O)O[C@H](/C(C)=C/[C@@H]3CC[C@H](Cl)[C@H](OC)C3)[C@H](C)[C@@H](O)CC1=O)[C@H](C)C[C@@H]2OC; target or system = HepG2; test = Alamar Blue; setting = 48 h; measurement = TC50; result = > 400 µM
SMILES = CCOC(=O)[C@@]12C[C@@H]1[C@@H](n1ccc3c(NC)nc(C#Cc4ccc(Cl)s4)nc31)[C@H](O)[C@@H]2O; target or system = HepG2; test = cell viability, CellTiter-Glo; setting = 30 µM, 72 h, unit not given; how to read = relative to: puromycin 10 µM; measurement = maximum response; result = 24
SMILES = CN(C)c1ccc2cc(C(=O)NS(=O)(=O)c3ccccc3-c3ccccc3)oc2c1; target or system = HepG2; setting = concentration not given; measurement = mitochondrial toxicity; result = negative
SMILES = COc1ccc(Nc2cnnc3cc(-c4ccc(S(=O)(=O)N5CCN(C)CC5)cc4)ccc23)nc1; target or system = HepG2; test = cytotoxicity; measurement = TC50; result = > 20 µM
SMILES = O=C(Cc1ccc(F)cc1)N1CCN(c2nc3c(Cl)cccc3s2)CC1; target or system = HepG2; test = cytotoxicity, CellTiter-Glo; setting = 3 days; measurement = IC50; result = > 56 µM
SMILES = CCN1CCN(Cc2ccc(Nc3nc4ccc(Oc5ccnc(N)c5)cc4n3C)cc2C(F)(F)F)CC1; target or system = HepG2; test = cytotoxicity; setting = 48 h; measurement = EC50; result = 5.5 ± 0.3 µM
SMILES = O=C1C[C@@H](c2ccc(O)cc2)Oc2cc(O)cc(O)c21; target or system = HepG2; test = viability, CellTiter-Glo; measurement = highest non-cytotoxic concentration; result = > 200 µM
SMILES = CN1CCN(c2ccc(-c3ccc4nncc(Nc5ccc(OC(F)(F)F)cc5)c4c3)cc2)CC1; target or system = HepG2; test = cytotoxicity; measurement = TC50; result = 18 µM
SMILES = Fc1ccc2[nH]c(Cc3c[nH]c4c(F)cccc34)cc2c1; target or system = HepG2; setting = up to 50 µM; measurement = cytotoxicity; result = not toxic
SMILES = CC(=O)Nc1ccc(O)cc1; target or system = HepG2; test = ATPlite; setting = 18 to 24 h, added: deferoxamine; measurement = CC50; result = > 1000 µM
SMILES = N#C[C@@]12C[C@@H]1[C@@H](n1cnc3c(N[C@@H](C4CCC4)C4CC4)nc(I)nc31)[C@H](O)[C@@H]2O; target or system = HepG2; test = cytotoxicity; measurement = IC50; result = 17.2 µM
SMILES = Cc1ccc(NC(=O)CCC(=O)N/N=C/c2ccc([N+](=O)[O-])o2)cc1C; target or system = Trypanosoma cruzi; test = reporter translation, Renilla luciferase mRNA translation; system = cell-free extract; setting = 40 µM; how to read = relative to: DMSO; measurement = inhibition; result = -3.6%
SMILES = CC(=O)[C@]1(O)Cc2c(O)c3c(c(O)c2[C@@H](O[C@H]2C[C@H](N)[C@H](O)[C@H](C)O2)C1)C(=O)c1ccccc1C3=O; target or system = HepG2; setting = 72 h; how to read = relative to: HepG2 CC50 over EC50; measurement = selectivity index; result = 1
SMILES = CCN1CCN(Cc2ccc(Nc3nc4cc(Oc5ccnc(NC(C)=O)c5)ccc4n3C)cc2C(F)(F)F)CC1; target or system = HepG2; test = cytotoxicity; setting = 48 h; measurement = EC50; result = 7.7 ± 0.3 µM
SMILES = CN1CCN(c2ncc(-c3ccc4nncc(Nc5ncc(Cl)cn5)c4c3)cn2)CC1; target or system = HepG2; test = cytotoxicity; measurement = TC50; result = > 4.7 µM
SMILES = CC(C(=O)Nc1cc(Cl)ccc1Cl)N1CCC(C(=O)NCc2ccccc2)CC1 (stereo not shown); target or system = HepG2; test = cytotoxicity, CellTiter-Glo; setting = 3 days; measurement = IC50; result = > 56 µM
SMILES = CCN1CCN(Cc2ccc(Nc3nc4ccc(Oc5ccnc(NC(C)=O)c5)c5c4n3CCC5)cc2C(F)(F)F)CC1; target or system = HepG2; test = cytotoxicity; setting = 48 h; measurement = EC50; result = 14.3 ± 0.7 µM
SMILES = Nc1nccc(-c2c(-c3ccc(F)cc3)ncn2C2CCNCC2)n1; target or system = HepG2; test = cytotoxicity; setting = PKIS HTS; measurement = pTC50; result = < 4
SMILES = CC(C)CCNC(=O)c1csc(-c2cccc(Cl)c2Cl)n1; target or system = HepG2; test = cytotoxicity, CellTiter-Glo; setting = 3 days; measurement = IC50; result = > 56 µM
SMILES = O=c1c(O)c(-c2ccc(O)cc2)oc2cc(O)cc(O)c12; target or system = HepG2; test = viability, CellTiter-Glo; measurement = highest non-cytotoxic concentration; result = > 200 µM
SMILES = CC(=O)Nc1cc(Oc2ccc3nc(Nc4ccc(F)cc4F)n(C)c3n2)ccn1; target or system = HepG2; test = cytotoxicity; setting = 48 h; measurement = EC50; result = > 20 µM
SMILES = C=CC(=O)Nc1cc(SCc2ccccc2C)ncn1; target or system = UCHL1; test = covalent, intact protein LC-MS; setting = 12.5 µM; measurement = labelling; result = 18.6%
SMILES = CCn1c(-c2nonc2N)nc2cncc(C(=O)N3CC[C@H](N)C3)c21; target or system = HepG2; test = cytotoxicity; setting = PKIS HTS; measurement = pTC50; result = < 4
SMILES = CCN1CCN(Cc2ccc(Nc3nc4cc(Oc5ccnc(NC(=O)C6CCN(C)CC6)c5)ccc4n3C)cc2C(F)(F)F)CC1; target or system = HepG2; test = cytotoxicity; setting = 48 h; measurement = EC50; result = 12.1 ± 1.5 µM
SMILES = CCC(=O)Nc1ccc(C(=O)CCl)cc1; target or system = UCHL1; test = covalent, intact protein LC-MS; setting = 12.5 µM; measurement = labelling; result = 8.95%
SMILES = O=C(Nc1ccc2c(c1)OC(F)(F)O2)Nc1ccc(Cl)c(C(F)(F)F)c1; target or system = HepG2; setting = 24 h; measurement = CC50; result = 10.5 µM
SMILES = [131I-].[Na+]; target or system = HepG2; setting = 7 µCi/well, 24 h; measurement = cellular uptake; result = 0.91 ± 0.04%
SMILES = O=C1c2ccccc2C(=O)c2c(NCCc3ccc(O)cc3)ccc(NCCc3ccc(O)cc3)c21; target or system = HepG2; setting = 72 h; how to read = relative to: HepG2 CC50 over EC50; measurement = selectivity index; result = 4

For quick reference, copied from above:
SMILES = CCN1CCN(Cc2ccc(Nc3nc4cc(Oc5ccnc(NC(=O)C6CCN(C)CC6)c5)ccc4n3C)cc2C(F)(F)F)CC1; target or system = HepG2; test = cytotoxicity; setting = 48 h; measurement = EC50; result = 12.1 ± 1.5 µM
SMILES = CCC(=O)Nc1ccc(C(=O)CCl)cc1; target or system = UCHL1; test = covalent, intact protein LC-MS; setting = 12.5 µM; measurement = labelling; result = 8.95%
